Results gathered from unrelated publications.
A part holds a random share of what one study measured. Substitutions count along the parent as printed.
Chain of UniProt P07949 (whole entry, unmodified, looked up): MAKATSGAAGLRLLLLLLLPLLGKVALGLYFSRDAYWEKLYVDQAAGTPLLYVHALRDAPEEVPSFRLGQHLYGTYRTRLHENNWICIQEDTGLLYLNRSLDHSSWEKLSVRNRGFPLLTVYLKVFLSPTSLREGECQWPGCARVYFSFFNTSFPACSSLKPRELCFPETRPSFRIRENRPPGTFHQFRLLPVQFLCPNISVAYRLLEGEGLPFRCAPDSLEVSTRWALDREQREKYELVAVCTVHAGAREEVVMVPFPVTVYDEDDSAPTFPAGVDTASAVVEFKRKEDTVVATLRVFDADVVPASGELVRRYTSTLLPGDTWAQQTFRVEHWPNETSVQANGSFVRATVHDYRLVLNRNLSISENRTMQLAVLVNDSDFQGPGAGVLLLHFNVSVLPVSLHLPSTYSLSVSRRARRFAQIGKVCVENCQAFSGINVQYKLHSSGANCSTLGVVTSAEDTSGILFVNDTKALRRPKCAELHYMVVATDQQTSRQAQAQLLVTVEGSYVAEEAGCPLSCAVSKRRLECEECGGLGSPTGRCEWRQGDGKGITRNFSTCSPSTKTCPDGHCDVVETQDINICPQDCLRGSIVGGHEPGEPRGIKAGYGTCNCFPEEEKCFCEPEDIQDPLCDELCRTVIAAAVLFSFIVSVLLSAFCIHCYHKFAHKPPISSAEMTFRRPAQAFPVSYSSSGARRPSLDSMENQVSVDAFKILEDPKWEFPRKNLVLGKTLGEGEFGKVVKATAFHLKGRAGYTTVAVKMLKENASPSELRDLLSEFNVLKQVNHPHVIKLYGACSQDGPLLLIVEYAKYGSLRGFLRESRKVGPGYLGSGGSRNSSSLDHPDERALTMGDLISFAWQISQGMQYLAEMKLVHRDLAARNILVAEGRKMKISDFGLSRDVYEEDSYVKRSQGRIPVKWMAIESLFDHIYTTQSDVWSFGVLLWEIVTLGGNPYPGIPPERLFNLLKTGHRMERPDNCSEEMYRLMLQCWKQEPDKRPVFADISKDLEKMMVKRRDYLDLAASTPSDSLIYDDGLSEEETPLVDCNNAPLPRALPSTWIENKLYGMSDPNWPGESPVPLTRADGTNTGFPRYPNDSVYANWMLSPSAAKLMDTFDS
Chain of UniProt P51451 (whole entry, looked up): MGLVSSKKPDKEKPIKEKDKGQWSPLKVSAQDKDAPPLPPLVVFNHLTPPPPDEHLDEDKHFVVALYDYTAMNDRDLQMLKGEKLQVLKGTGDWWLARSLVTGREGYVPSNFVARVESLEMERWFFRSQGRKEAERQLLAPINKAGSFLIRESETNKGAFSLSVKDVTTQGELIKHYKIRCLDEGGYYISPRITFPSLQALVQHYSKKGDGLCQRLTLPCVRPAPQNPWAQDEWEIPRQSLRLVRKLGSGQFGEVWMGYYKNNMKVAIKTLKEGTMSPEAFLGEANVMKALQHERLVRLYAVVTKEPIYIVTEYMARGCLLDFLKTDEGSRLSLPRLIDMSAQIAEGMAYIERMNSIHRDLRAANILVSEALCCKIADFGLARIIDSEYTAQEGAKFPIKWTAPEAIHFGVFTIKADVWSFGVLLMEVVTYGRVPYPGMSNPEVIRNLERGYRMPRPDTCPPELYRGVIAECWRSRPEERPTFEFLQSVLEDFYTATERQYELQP
Chain of UniProt Q9UQM7 (whole entry, looked up): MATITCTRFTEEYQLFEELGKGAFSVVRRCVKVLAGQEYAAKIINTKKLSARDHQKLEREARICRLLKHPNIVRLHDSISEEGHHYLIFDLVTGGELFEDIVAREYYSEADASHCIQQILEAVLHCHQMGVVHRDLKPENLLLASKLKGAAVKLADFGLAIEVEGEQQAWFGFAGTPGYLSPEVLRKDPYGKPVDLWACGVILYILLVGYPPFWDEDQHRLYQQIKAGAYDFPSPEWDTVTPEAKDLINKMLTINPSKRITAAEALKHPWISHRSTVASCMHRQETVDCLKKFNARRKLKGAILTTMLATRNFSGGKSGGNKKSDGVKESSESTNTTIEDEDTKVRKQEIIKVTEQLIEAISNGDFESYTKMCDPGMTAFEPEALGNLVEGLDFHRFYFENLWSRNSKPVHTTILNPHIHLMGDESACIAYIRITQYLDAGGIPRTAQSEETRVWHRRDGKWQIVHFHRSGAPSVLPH
Chain of UniProt Q9UQ88 (whole entry, looked up): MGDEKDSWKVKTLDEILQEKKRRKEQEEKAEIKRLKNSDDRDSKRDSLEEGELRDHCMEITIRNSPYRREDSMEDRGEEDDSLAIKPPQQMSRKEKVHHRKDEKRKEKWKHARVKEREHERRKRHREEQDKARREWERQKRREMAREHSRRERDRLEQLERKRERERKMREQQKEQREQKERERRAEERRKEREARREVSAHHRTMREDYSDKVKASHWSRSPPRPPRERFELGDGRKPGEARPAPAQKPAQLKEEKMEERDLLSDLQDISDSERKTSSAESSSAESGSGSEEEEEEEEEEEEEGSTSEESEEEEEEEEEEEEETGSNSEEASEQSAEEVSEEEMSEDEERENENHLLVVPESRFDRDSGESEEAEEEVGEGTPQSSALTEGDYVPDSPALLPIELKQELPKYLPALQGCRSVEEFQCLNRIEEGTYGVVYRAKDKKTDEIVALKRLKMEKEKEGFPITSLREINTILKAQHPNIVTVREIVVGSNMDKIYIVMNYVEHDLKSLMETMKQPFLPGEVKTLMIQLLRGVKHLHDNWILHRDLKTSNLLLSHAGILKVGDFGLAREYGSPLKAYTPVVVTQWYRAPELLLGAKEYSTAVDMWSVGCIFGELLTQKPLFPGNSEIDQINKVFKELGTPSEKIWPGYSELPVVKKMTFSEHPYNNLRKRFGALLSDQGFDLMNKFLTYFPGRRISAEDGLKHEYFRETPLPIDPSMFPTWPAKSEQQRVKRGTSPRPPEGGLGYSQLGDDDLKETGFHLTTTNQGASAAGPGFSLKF
Chain of UniProt Q15375 (whole entry, looked up): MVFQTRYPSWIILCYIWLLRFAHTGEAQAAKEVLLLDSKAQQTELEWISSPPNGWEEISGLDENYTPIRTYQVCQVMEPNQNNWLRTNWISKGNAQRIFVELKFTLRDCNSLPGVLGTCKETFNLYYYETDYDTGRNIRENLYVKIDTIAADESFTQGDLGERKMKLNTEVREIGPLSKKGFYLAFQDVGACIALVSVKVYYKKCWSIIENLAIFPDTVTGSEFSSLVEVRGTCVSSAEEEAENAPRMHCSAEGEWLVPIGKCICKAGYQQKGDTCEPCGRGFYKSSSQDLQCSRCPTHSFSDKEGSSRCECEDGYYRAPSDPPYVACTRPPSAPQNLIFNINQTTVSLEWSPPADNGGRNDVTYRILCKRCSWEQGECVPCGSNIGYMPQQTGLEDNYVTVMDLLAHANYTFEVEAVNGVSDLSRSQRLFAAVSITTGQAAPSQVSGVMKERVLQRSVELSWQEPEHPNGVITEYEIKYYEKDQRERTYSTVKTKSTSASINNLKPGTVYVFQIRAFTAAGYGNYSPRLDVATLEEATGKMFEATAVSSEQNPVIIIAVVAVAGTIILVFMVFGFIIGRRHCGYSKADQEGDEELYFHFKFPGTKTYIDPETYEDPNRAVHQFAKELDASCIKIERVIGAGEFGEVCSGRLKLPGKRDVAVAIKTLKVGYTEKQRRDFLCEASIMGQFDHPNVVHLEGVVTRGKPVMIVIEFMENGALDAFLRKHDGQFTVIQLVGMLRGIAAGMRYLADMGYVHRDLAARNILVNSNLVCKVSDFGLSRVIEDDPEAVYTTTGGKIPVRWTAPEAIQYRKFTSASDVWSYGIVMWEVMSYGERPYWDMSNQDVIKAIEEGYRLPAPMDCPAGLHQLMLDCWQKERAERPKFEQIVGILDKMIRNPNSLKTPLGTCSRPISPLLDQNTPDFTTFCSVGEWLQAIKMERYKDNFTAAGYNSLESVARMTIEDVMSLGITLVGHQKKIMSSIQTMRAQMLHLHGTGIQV
Chain of UniProt Q7L7X3 (whole entry, looked up): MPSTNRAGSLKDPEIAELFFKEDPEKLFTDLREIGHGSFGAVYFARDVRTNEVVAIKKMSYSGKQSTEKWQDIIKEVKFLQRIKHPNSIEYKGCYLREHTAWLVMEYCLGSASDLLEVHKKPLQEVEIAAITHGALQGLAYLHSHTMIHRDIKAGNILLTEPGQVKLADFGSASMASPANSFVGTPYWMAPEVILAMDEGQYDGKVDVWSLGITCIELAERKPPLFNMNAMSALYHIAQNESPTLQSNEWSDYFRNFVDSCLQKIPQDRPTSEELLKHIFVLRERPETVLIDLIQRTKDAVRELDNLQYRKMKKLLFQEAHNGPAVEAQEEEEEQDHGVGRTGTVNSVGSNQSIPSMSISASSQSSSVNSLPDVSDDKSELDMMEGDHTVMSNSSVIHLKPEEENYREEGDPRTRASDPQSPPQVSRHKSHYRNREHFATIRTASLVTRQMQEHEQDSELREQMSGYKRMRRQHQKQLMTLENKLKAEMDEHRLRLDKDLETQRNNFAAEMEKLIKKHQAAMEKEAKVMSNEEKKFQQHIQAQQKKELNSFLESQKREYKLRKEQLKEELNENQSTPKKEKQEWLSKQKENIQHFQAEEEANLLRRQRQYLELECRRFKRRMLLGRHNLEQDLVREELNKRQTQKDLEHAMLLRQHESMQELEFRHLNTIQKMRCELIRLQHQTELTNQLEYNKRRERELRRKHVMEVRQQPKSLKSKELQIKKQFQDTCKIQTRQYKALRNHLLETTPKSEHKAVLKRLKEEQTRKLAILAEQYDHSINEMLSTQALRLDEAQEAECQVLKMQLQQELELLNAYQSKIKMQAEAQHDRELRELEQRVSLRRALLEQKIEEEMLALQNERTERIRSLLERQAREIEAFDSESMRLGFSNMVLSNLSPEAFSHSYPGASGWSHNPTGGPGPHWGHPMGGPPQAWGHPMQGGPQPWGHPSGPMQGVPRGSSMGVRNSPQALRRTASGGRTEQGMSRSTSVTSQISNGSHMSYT

Sample 1
Target: OGT, full length, His-tagged (human)
Technique: phage display, sequencing
Medium: in vitro
Tested at: 1 µg OGT
Notes: single substitutions, 15-mer displayed peptide, unchanged parent 16.7
Reference: input library
Reading: higher = stronger binding
Starting sequence: peptide; NSEYMPQYQIIFAHQ; partner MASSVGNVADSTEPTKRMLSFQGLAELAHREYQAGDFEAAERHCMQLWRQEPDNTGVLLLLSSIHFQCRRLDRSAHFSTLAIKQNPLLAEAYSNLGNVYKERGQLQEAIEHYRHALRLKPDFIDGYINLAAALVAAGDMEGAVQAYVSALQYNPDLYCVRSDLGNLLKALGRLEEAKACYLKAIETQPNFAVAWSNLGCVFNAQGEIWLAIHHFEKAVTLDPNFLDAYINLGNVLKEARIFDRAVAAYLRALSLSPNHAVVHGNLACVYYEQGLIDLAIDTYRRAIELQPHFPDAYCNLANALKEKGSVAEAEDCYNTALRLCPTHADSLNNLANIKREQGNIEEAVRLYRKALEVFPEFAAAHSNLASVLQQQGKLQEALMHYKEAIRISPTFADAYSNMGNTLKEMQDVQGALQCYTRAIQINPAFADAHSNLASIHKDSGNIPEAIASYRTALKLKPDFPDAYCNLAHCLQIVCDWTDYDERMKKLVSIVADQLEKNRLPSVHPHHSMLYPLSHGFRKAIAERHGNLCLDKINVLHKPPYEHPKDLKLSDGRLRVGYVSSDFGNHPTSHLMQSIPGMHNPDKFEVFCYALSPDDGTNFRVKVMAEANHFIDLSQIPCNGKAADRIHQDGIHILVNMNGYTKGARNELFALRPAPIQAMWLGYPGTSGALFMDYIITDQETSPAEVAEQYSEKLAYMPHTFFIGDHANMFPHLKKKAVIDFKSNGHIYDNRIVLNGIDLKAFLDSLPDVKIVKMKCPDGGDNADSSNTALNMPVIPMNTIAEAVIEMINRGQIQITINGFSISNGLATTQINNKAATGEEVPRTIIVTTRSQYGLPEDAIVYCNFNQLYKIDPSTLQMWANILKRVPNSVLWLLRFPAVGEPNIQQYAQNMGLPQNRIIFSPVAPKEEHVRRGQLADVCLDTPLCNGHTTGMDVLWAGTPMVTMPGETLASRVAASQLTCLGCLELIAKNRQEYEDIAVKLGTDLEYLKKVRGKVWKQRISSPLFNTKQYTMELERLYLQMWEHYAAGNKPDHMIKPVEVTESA
| Variant | fold enrichment |
| --- | --- |
| Q15I | 9.06 fold |
| M5L | 16.1 fold |
| I11T | 8.68 fold |
| Q15G | 11.4 fold |
| A13T | 25.6 fold |
| P6V | 3.02 fold |
| P6W | 2.89 fold |
| E3F | 12.5 fold |

Sample 2
Structure (SMILES): Cc1c[nH]c2nccc(Oc3c(F)cc(Nc4cc(Cl)nc(N)n4)cc3F)c12
Technique: competition with immobilised ligand
Tested at: 0.1 µM
| target | effect on | remaining binding [%] |
| --- | --- | --- |
| Serine/threonine-protein kinase B-raf (BRAF, Homo sapiens, UniProt P15056) | cell-free assay | 98 |
| Tyrosine-protein kinase Blk (BLK, Homo sapiens, UniProt P51451) | cell-free assay | 90 |
| Glycogen synthase kinase-3 beta (GSK3B, Homo sapiens, UniProt P49841) | cell-free assay | 98 |
| Serine/threonine-protein kinase RIO1 (RIOK1, Homo sapiens, UniProt Q9BRS2) | cell-free assay | 100 |
| Phosphorylase b kinase gamma catalytic chain, skeletal muscle/heart isoform (PHKG1, Homo sapiens, UniProt Q16816) | cell-free assay | 100 |
| Proto-oncogene tyrosine-protein kinase receptor Ret (RET, Homo sapiens, UniProt P07949, V804M) | cell-free assay | 100 |
| Muscle, skeletal receptor tyrosine-protein kinase (MUSK, Homo sapiens, UniProt O15146) | cell-free assay | 96 |
| Proto-oncogene tyrosine-protein kinase receptor Ret (RET, Homo sapiens, UniProt P07949) | cell-free assay | 97 |
| SRSF protein kinase 2 (SRPK2, Homo sapiens, UniProt P78362) | cell-free assay | 75 |
| Cyclin-dependent kinase 11A (CDK11A, Homo sapiens, UniProt Q9UQ88) | binding | 100 |
| Serine/threonine-protein kinase TAO1 (TAOK1, Homo sapiens, UniProt Q7L7X3) | cell-free assay | 84 |
| Calcium/calmodulin-dependent protein kinase type II subunit alpha (CAMK2A, Homo sapiens, UniProt Q9UQM7) | cell-free assay | 70 |
| Serine/threonine-protein kinase TBK1 (TBK1, Homo sapiens, UniProt Q9UHD2) | cell-free assay | 96 |
| Tyrosine-protein kinase ABL1, phosphorylated (ABL1, Homo sapiens, UniProt P00519, T315I) | cell-free assay | 84 |
| Rhodopsin kinase GRK7 (GRK7, Homo sapiens, UniProt Q8WTQ7) | cell-free assay | 68 |
| Mitogen-activated protein kinase kinase kinase 19 (MAP3K19, Homo sapiens, UniProt Q56UN5) | cell-free assay | 74 |
| Serine/threonine-protein kinase Nek11 (NEK11, Homo sapiens, UniProt Q8NG66) | cell-free assay | 75 |
| Ephrin type-A receptor 7 (EPHA7, Homo sapiens, UniProt Q15375) | cell-free assay | 82 |
| Casein kinase I isoform delta (CSNK1D, Homo sapiens, UniProt P48730) | cell-free assay | 100 |
| Atypical kinase COQ8B, mitochondrial (COQ8B, Homo sapiens, UniProt Q96D53) | cell-free assay | 88 |

Sample 3
Target: TAR DNA-binding protein 43, full length, His tag (TARDBP, Homo sapiens, UniProt Q13148, residues 1-414)
Technique: RNA Bind-n-Seq
Form: RNA
Medium: in vitro
Tested at: 20 nM
Notes: 6-mer, flanks averaged, single round
Together with: 150 mM LiCl
Reference: input library
Reading: higher = stronger binding
| Strand | 6-mer enrichment (R) |
| --- | --- |
| CACUAG | 0.834 |
| CCUUGA | 1.17 |
| GGACCU | 0.94 |
| GUUACA | 0.901 |
| GUGCGU | 1.43 |
| ACCCAC | 0.972 |
| AUAAAC | 0.858 |
| GGUCGG | 1.19 |

Single results of other studies
| Molecule | target or system | test | system | conditions | quantity | result |
| --- | --- | --- | --- | --- | --- | --- |
| KRT20 (Homo sapiens, UniProt P35900) | KRT74 (Homo sapiens, UniProt Q7RTS7) | cross-linking MS | cells | together with: BSPNO | cross-linked residues | K380 to K150 |
| COX4I1 (Homo sapiens, UniProt P13073) | TEX15 (Homo sapiens, UniProt Q9BXT5) | cross-linking MS | cell fractions | together with: DSSO | cross-linked residues | K67 to K1851 |
| COC(=O)C1(C(=O)OC)C(CC(=O)c2ccc(C)cc2)c2cc(N(C)C)ccc2C(c2ccccc2)N1S(=O)(=O)c1ccc(C)cc1 (stereo not drawn) |  |  | human, microsomes or S9 | 2 µM, 0.5 h | remaining compound | 23.8% |
| EPN2 (Homo sapiens, UniProt O95208) | HSPA9 (Homo sapiens, UniProt P38646) | cross-linking MS | cell fractions | together with: DSSO | cross-linked residues | S312 to K300 |
| CC(C)n1cnc(-c2ccc(F)cc2)c1-c1ncc(C(=O)Nc2ccc(N3CCN(C)CC3)cc2)[nH]1 |  | phase 2a trial | patients with idiopathic pulmonary fibrosis | dose not given, free thyroxine decreased, grade 3, all arms | patients with TEAE | 0% |
| COc1cc(OC)c(C2Nc3cc(C)c(C)cc3NC3=C2C(=O)CC(C)(C)C3)cc1OC (stereo not drawn) |  |  | human, microsomes or S9 | 2 µM, 0.5 h | remaining compound | 24% |
| SF3A3 (Homo sapiens, UniProt Q12874) | SF3B3 (Homo sapiens, UniProt Q15393) | cross-linking MS |  | hits only | interaction screen | cross-linked |
| COC(=O)CCCn1c(C(=O)c2ccccc2)c(C(C)C)c(=O)[nH]c1=O |  |  | human, microsomes or S9 | 2 µM, 0.5 h | remaining compound | 8.25% |
| PDIA4 (Homo sapiens, UniProt P13667) | HSP90B1 (Homo sapiens, UniProt P14625) | cross-linking MS | cell fractions | together with: DSSO | cross-linked residues | K366 to K161 |
